# Measured values from different studies.
# A part holds a random share of what one study measured. Positions count from the first letter of the parent shown.

# Sample 1
# Target: human cyclin B2
# Read-out: peptide binding
# Technique: yeast competitive growth sequencing
# Molecule type: peptide
# Organism: Saccharomyces cerevisiae
# Strain: cyclin B2-Cln2 fusion
# Tested at: concentration not given
# Notes: peptide tiling library
# Direction: direction not given
Molecule,binding enrichment score
AKRSLGFLPQPVPL,-0.033
LRRKLFLDGNGSIS,0.188
IVLICAKRSLCAAFSV,-0.221
VLVRTSACRSLFGPVD,0.904
ALLRRLQDVANDRGSH,-0.155
QYQVVDDIVSKLVFDF,0.0222
QNPCGSKACRRLFGPV,-0.0578
PLRKAKRARLCSSSSS,0.877

# Sample 2
# Target: ABI1, truncated, D143A, DHFR fusion (Arabidopsis thaliana)
# Technique: DHFR PCA, deep sequencing
# Sample: yeast
# Notes: methotrexate growth selection, single substitutions
# Added: (+)-ABA 0.39 µM
# Baseline: wild-type fitted maximum
# Direction: higher = stronger binding
# Starting sequence: PYL1, truncated, DHFR fusion (Arabidopsis thaliana); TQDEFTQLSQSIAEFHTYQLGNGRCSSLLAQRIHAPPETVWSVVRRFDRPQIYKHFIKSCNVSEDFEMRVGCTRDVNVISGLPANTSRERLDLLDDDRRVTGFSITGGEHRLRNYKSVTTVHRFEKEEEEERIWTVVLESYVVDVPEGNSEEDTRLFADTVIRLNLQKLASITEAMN; partner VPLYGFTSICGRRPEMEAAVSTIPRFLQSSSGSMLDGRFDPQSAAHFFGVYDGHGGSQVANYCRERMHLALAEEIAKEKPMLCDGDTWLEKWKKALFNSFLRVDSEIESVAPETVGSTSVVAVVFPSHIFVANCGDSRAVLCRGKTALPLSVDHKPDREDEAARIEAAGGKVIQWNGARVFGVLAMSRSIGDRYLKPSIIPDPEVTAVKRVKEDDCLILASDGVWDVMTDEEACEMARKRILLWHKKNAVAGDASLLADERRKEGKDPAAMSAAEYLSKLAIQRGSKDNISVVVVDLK
Substitution,relative binding score
Q31M,1.11%
S26F,1.59%
V62R,-0.25%
V121D,3.69%
A30E,6.69%
A35D,-14%
L29T,-4.31%

# Sample 3
# Target: Myc proto-oncogene protein, bHLH-zipper, MAX partner unstated (MYC, Homo sapiens, UniProt P01106, residues 368-449)
# UniProt P01106, sequence (368-449, looked up): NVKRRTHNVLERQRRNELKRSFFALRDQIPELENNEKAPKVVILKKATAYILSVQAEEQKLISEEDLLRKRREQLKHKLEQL
# Technique: protein-binding microarray
# Molecule type: double-stranded DNA, one strand shown
# Sample: in vitro
# Tested at: not given
# Notes: k-mer, scored over probes, only values ≥0.25
# Direction: higher = stronger binding
Strand,E-score
CACGCTAC,0.373
CGTGGGAC,0.405
CATGGGCG,0.355
AACGTGTG,0.402
ATGTGCTC,0.388
CATGCTGC,0.437
CCATGCAG,0.41

# Further values, each from its own experiment
Substance,target,assay,test system,conditions,scale,quantity,result
"PhoQ, residues 284 288 289 292 302 303 SLSVQF","PhoP, residues 12 14 15 18 19 NFCKL (Escherichia coli, UniProt P23836)","Sort-seq, measured: YFP reporter",E. coli,"PhoQ-PhoP variant library, added: 10 µM Mg2+","baseline: high Mg2+ state, higher = stronger signaling",fold induction,10.3

# Excerpt of the above (sample 2):
Substitution,relative binding score
V121D,3.69%
A30E,6.69%
V62R,-0.25%
